Experimental data pooled from the literature.
Technique: steady-state kinetics
B1: protein Y93A (Thermus thermophilus, UniProt Q5SKR5); chain MSAPKPFVIGIAGGTASGKTTLAQALARTLGERVALLPMDHYYKDLGHLPLEERLRVNYDHPDAFDLALYLEHAQALLRGLPVEMPVYDFRAATRSPRRTPVRPAPVVILEGILVLYPKELRDLMDLKVFVDADADERFIRRLKRDVLERGRSLEGVVAQYLEQVKPMHLHFVEPTKRYADVIVPRGGQNPVALEMLAAKALARLARMGAA
B2: LYS12 D271N (Saccharomyces cerevisiae, UniProt P40495); chain SLTIGLIPGDGIGKEVIPAGKQVLENLNSKHGLSFNFIDLYAGFQTFQETGKALPDETVKVLKEQCQGALFGAVQSPTTKVEGYSSPIVALRREMGLFANVRPVKSVEGEKGKPIDMVIVRENTEDLYIKIEKTYIDKATGTRVADATKRISEIATRRIATIALDIALKRLQTRGQATLTVTHKSNVLSQSDGLFREICKEVYESNKDKYGQIKYNEQIVDSMVYRLFREPQCFDVIVAPNLYGDILSNGAAALVGSLGVVPSANVGPEIVIGEPCHGSAPDIAGKGIANPIATIRSTALMLEFLGHNEAAQDIYKAVDANLREGSIKTPDLGGKASTQQVVDDVLSRL
B3: protein (Stereum hirsutum, UniProt P9WEW0); chain MTVVDSPQRFYIPNCLEYWPWPRHINPHYQEVKKASAAWAESFGAFNPKAQHAYNACDFNLLASLAYPLESEERLRTGCDLMNMFFVFDEYSDVSSPKDVIQQAAIIMDALRNPYAPRPDDEWVGGEVTRQFWKRAIKTATAGAQRRFIDAFESYTQSVVQQAKDRHHGFIRDVDSYLEMRRETIGAKPSFVVLQMDMTLPDEVLAHPVIQQLSALSTDMICLGNDICSYNVEQARGDDLHNIITIAMNQFDIDIAGAMDWVVKYHAKLERKFLYLYNNGLPSWGKELDPQVERYVCGLGNWVRASDQWGFESERYFGKKGKEIFKRRWVNLMQPERAQDIGPTLVDGTRL
B4: Pck1 A467G (Rattus norvegicus, UniProt P07379); chain MPPQLHNGLDFSAKVIQGSLDSLPQEVRKFVEGNAQLCQPEYIHICDGSEEEYGRLLAHMQEEGVIRKLKKYDNCWLALTDPRDVARIESKTVIITQEQRDTVPIPKSGQSQLGRWMSEEDFEKAFNARFPGCMKGRTMYVIPFSMGPLGSPLAKIGIELTDSPYVVASMRIMTRMGTSVLEALGDGEFIKCLHSVGCPLPLKKPLVNNWACNPELTLIAHLPDRREIISFGSGYGGNSLLGKKCFALRIASRLAKEEGWLAEHMLILGITNPEGKKKYLAAAFPSACGKTNLAMMNPTLPGWKVECVGDDIAWMKFDAQGNLRAINPENGFFGVAPGTSVKTNPNAIKTIQKNTIFTNVAETSDGGVYWEGIDEPLAPGVTITSWKNKEWRPQDEEPCAHPNSRFCTPASQCPIIDPAWESPEGVPIEGIIFGGRRPAGVPLVYEALSWQHGVFVGAAMRSEATAGAEHKGKVIMHDPFAMRPFFGYNFGKYLAHWLSMAHRPAAKLPKIFHVNWFRKDKNGKFLWPGFGENSRVLEWMFGRIEGEDSAKLTPIGYVPKEDALNLKGLGDVNVEELFGISKEFWEKEVEEIDKYLEDQVNADLPYEIERELRALKQRISQM
B5: AKR1C2 (Homo sapiens, UniProt P52895); chain MDSKYQCVKLNDGHFMPVLGFGTYAPAEVPKSKALEAVKLAIEAGFHHIDSAHVYNNEEQVGLAIRSKIADGSVKREDIFYTSKLWSNSHRPELVRPALERSLKNLQLDYVDLYLIHFPVSVKPGEEVIPKDENGKILFDTVDLCATWEAMEKCKDAGLAKSIGVSNFNHRLLEMILNKPGLKYKPVCNQVECHPYFNQRKLLDFCKSKDIVLVAYSALGSHREEPWVDPNSPVLLEDPVLCALAKKHKRTPALIALRYQLQRGVVVLAKSYNEQRIRQNVQVFEFQLTSEEMKAIDGLNRNVRYLTLDIFAGPPNYPFSDEY
Sequence of UniProt G1UII1 (whole entry, looked up): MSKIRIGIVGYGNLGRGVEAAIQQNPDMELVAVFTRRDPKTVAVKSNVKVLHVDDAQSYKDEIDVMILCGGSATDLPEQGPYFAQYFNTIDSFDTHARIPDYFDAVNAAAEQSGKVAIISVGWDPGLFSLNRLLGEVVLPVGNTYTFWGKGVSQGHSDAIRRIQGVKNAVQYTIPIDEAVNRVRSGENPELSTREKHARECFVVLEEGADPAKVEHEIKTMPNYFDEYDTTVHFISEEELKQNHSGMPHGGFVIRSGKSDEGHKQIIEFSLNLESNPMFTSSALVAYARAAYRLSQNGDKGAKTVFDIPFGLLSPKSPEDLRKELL
Sequence of UniProt Q9LTH3 (whole entry, looked up): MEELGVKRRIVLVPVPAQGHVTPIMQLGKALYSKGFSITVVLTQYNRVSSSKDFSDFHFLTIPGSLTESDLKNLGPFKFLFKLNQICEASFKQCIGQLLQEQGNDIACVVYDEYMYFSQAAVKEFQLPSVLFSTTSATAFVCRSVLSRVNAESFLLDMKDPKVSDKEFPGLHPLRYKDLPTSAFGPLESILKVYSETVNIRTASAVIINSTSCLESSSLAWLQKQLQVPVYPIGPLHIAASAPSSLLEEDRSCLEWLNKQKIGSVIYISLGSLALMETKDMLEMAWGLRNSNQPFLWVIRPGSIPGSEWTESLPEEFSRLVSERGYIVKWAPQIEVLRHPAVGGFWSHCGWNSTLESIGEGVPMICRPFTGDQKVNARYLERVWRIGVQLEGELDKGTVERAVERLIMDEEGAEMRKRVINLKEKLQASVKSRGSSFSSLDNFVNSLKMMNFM
Sequence of UniProt O15327 (whole entry, looked up): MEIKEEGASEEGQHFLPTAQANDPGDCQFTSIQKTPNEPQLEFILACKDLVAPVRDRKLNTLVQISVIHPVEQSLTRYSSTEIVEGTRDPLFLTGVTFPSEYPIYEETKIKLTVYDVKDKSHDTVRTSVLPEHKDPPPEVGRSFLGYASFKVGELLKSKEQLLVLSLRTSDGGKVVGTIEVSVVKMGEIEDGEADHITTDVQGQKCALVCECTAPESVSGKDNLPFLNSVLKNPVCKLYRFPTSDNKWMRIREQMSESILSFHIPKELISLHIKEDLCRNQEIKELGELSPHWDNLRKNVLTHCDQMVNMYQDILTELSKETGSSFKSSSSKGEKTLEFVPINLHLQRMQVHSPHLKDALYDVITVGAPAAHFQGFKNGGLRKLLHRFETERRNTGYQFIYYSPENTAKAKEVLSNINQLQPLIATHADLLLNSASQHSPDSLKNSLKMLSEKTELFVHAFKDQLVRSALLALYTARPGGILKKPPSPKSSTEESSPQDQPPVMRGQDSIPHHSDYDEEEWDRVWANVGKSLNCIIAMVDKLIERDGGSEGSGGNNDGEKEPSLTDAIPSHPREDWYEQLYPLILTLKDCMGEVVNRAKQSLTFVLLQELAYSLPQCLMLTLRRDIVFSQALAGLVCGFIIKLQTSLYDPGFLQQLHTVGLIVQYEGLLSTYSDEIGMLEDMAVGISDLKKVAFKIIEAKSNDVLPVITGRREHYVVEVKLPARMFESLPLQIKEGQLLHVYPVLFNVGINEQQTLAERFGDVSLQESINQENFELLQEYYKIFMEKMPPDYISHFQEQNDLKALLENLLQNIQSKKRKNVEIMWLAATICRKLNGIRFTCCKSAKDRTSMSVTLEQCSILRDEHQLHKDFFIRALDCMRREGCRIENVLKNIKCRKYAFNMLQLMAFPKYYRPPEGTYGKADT
Sequence of UniProt Q29437 (whole entry, looked up): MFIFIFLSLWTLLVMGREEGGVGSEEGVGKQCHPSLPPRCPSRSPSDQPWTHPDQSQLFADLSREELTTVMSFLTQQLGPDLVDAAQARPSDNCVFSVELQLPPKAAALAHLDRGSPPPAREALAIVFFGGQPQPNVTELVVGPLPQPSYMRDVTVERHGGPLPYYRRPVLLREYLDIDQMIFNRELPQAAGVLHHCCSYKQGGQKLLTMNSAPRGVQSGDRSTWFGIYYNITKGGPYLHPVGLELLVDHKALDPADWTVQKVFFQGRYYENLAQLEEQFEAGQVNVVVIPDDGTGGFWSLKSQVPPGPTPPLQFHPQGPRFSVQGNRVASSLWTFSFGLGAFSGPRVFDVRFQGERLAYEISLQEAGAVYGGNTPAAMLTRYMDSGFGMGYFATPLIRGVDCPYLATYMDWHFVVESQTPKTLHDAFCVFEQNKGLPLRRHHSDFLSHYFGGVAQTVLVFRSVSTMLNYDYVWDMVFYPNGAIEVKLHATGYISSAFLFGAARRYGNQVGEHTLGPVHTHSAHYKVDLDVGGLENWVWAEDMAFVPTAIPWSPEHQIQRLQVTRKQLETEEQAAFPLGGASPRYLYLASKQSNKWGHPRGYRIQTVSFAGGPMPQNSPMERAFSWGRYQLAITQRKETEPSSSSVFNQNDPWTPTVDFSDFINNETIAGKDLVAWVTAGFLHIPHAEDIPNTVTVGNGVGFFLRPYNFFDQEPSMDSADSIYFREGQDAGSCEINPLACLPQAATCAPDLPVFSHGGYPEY

B1 (protein Y93A)
Km (Nc1ccn([C@@H]2O[C@H](CO)[C@@H](O)[C@H]2O)c(=O)n1; pH 7.2, 25 °C, KCl 100 mM, with: ATP 100–200 µM): 383 µM

ddh (Ureibacillus thermosphaericus, UniProt G1UII1)
Km (O=C(O)C(=O)Cc1ccccc1; pH 9, 30 °C, reductive amination, with: NH4Cl 200 mM, NADPH 0.5 mM): 3070 µM

enzyme (Arabidopsis thaliana, UniProt Q9LTH3)
Km (O=c1ccn([C@@H]2O[C@H](CO[P@@](=O)(O)O[P@@](=O)(O)O[C@H]3O[C@H](CO)[C@@H](O)[C@H](O)[C@H]3O)[C@@H](O)[C@H]2O)c(=O)[nH]1; pH 7.5, 25 °C): 10.5 µM

B2 (LYS12 D271N)
Km (NC(=O)c1ccc[n+]([C@@H]2O[C@H](COP(=O)([O-])OP(=O)(O)OC[C@H]3O[C@@H](n4cnc5c(N)ncnc54)[C@H](O)[C@@H]3O)[C@@H](O)[C@H]2O)c1; pH 7.5, 25 °C, potassium acetate 100 mM, with: Mg-cosubstrate varied; Mg2+ 10 mM): 25 µM

B3 (protein)
Km (CC(C)=CCC/C(C)=C/CC/C(C)=C/CO[P@@](=O)(O)OP(=O)(O)O; pH 8, NaCl 200 mM, with: FPP 1–100 µM): 5.02 µM

enzyme (Pseudomonas aeruginosa, UniProt O84908)
Km (C[C@H]1O[C@H](OP(=O)(O)OP(=O)(O)OC[C@H]2O[C@@H](n3cnc4c(=O)[nH]c(N)nc43)[C@H](O)[C@@H]2O)[C@@H](O)[C@@H](O)[C@@H]1O; pH 9, 37 °C, apparent, not purified): 145 µM

TIIAS (Salvia miltiorrhiza, UniProt A0A8K1XH31)
Km (C[C@H]1COC2=C1C(=O)C(=O)c1c2ccc2c1CCCC2(C)C; pH 6.5, 20 °C): 67.7 µM

Plasma amine oxidase (Bos taurus, UniProt Q29437)
Km (CN(C)CCOc1ccc2cc(CN)ccc2c1; pH 7.2, 30 °C): 0.202 µM

enzyme (Sphingomonas paucimobilis, UniProt Q76LC4)
Km (O=[N+]([O-])c1ccc(O[C@@H]2O[C@@H](CO)[C@H](O)[C@@H](O)[C@H]2O)cc1; pH 8, 37 °C): 2440 µM

B4 (Pck1 A467G)
Km (Nc1nc2c(ncn2[C@@H]2O[C@H](COP(=O)(O)OP(=O)(O)OP(=O)(O)O)[C@@H](O)[C@H]2O)c(=O)[nH]1; pH 7.5, 25 °C): 47 µM

B5 (AKR1C2)
Km (C=C1C[C@@H]2[C@H](CC[C@]3(C)C(=O)CC[C@@H]23)[C@@]2(C)C=CC(=O)C=C12; 37 °C): 16.4 µM

INPP4B (Homo sapiens, UniProt O15327)
Km (O=[N+]([O-])c1ccc(OP(=O)(O)O)cc1; pH 8, 25 °C, with: pNPP 10-100 mM): 38000 µM

Repeated from above:
TIIAS (Salvia miltiorrhiza, UniProt A0A8K1XH31)
Km (C[C@H]1COC2=C1C(=O)C(=O)c1c2ccc2c1CCCC2(C)C; pH 6.5, 20 °C): 67.7 µM
